Measured values pooled from the literature.
Numbered parts are unrelated; each lists some results of a single study.

Study 1
Target: Interferon regulatory factor 7, full length, phosphomimetic (IRF7, Homo sapiens, UniProt Q92985, residues 1-503, S471D/S472D/S475D/S476D/S477D/S483D/S484D/S487D)
Technique: protein-binding microarray
Form: double-stranded DNA, one strand shown
Sample: in vitro
Tested at: 2200 nM top
Setting: 60-bp whole probe
With: salmon DNA 0.4 mg/ml
Baseline: random background probes
Reading: higher = stronger binding
Measurement: fitted relative affinity
Shared flanks, not repeated: GCCTAGCAC … GTCTTGATTCGCTTGACGCTGCTG
Construct (chain): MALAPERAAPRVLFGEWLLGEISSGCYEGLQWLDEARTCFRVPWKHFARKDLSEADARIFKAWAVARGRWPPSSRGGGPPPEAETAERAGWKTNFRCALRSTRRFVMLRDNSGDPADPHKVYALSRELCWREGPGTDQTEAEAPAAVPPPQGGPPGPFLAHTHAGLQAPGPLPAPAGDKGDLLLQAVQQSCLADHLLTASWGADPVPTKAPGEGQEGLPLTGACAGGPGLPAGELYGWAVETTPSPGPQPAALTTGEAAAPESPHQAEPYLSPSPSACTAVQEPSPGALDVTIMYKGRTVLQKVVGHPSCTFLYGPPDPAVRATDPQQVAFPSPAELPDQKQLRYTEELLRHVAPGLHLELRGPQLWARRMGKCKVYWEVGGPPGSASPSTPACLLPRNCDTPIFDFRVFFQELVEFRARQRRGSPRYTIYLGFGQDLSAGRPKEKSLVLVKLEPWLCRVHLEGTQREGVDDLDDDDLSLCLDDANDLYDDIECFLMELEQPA
Strand = CTTGCTTTCCAATTCTCTTTGTGCTAG; result = 3.79 z-score
Strand = TTAGGACTGGACTATCGATTAGTGCTA; result = -0.284 z-score
Strand = TTAGGAGTGGACACTGGGTTAGTGCTA; result = -0.625 z-score
Strand = TCAGTGCTCATGCTTCTTACTGTGCTA; result = 0.162 z-score
Strand = AAACTTACCTCACTCGTTAAGTGCTAG; result = 0.719 z-score
Strand = TCATATTTACTCTCTACAACTGTGCTA; result = 1.41 z-score
Strand = ATTTTTTAGCTTCTCAATTAGTGCTAG; result = 0.944 z-score
Strand = TTAGGACTGCTTTTACTTTAGTGCTAG; result = 0.691 z-score
Strand = TTAGGGTTCGGTTTCGGTTAGTGCTAG; result = 7.65 z-score

Study 2
Target: Ras GTPase-activating protein-binding protein 1, full length (G3BP1, Homo sapiens, UniProt Q13283)
Sequence of UniProt Q13283 (whole entry, looked up): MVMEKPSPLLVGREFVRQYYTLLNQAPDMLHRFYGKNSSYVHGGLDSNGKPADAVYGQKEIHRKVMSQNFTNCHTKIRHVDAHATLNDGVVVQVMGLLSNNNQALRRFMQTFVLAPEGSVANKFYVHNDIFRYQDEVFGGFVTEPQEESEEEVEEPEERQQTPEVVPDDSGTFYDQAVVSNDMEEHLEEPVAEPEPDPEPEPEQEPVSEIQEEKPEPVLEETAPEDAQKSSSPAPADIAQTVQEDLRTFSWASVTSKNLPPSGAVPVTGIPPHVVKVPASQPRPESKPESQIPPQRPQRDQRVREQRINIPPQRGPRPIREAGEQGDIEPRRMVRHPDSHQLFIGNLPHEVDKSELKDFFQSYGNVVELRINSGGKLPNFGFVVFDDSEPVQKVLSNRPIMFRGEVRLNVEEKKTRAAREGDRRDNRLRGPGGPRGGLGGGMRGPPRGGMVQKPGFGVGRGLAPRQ
Technique: RNA Bind-n-Seq
Form: RNA
Sample: in vitro
Tested at: 200 nM
Setting: whole 134-nt RNA, ends assumed
With: 150 mM LiCl
Baseline: input library
Reading: higher = stronger binding
Measurement: log2 enrichment
All molecules: 7-deaza-guanosine replaces G
Strand = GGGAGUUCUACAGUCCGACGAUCCACAGACAACACGCACCCACACAGACACAGAGGGAAGGGGUUGGGAUGGGGACAGGGUGCACAGCAGGGAAAGGUAGGACCCCAGCCCCUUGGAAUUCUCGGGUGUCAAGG; result = 0.32
Strand = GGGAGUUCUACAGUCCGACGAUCGUCCUGUGCUACACAUCGUAUGUACCGAAUCGGUUUUUUGGGUUUUUUGGGUUUUUUGGAAAGUAUUAUGUUACGCCGUUCGGAUCUGCAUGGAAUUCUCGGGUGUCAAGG; result = -0.949
Strand = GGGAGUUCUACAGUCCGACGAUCUCCUGUGCUACACAUCGUAUGUACCGAAUCGGGGAAAAAAAGGGGAGGGGUUUUUGGGGAAAGUAUUAUGUUACGCCGUUCGGAUCUGCAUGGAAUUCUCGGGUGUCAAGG; result = 0.758
Strand = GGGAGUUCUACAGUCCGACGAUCGCAGGAAGUAAAAACAAAUGGAAAUGCUUCGGAUAGUGGCAGGGGUGGGGGUUGCUAAGGAAAGGGUGGGAUGGGAGUGGGUCAAGAGUUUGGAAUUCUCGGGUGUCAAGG; result = -0.14
Strand = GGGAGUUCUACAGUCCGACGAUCGCAGGAAGUAAAAACAAAUGGAAAUGCUUCGGAUAGUGGCAGGGGUGGGGGUUGCUAAGGAAAGGGUGGGAUGGGAGUGGGUAAAAAGUUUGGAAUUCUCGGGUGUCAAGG; result = -0.279
Strand = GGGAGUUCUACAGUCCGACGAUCUCAAGUCCUGUGCUACACAUCGUAUGUACCGAAUCGGAGGAAAGGUUUUUUUGGAAAGUAUUAUGUUACGCCGUUCGGAUCUGCACUUCCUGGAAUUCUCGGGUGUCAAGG; result = 0.0204
Strand = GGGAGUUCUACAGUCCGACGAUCUCAAGUCCUGUGCUACACAUCGUAUGUACCGAAUCGGUUUUUUUGGUGGUUUGGAAAGUAUUAUGUUACGCCGUUCGGAUCUGCACUUCCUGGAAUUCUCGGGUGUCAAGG; result = -0.68
Strand = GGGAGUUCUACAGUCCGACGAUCUCAAGUCCUGUGCUACACAUCGUAUGUACCGAAUCGGGUUGGGUUGGGGUUGGGGAAAGUAUUAUGUUACGCCGUUCGGAUCUGCACUUCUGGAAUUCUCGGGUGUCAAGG; result = -0.0654

Study 3
Target: Protein C-ets-1 (ETS1, Homo sapiens, UniProt P14921, residues 1-441, K379A, full length assumed)
Technique: protein-binding microarray
Form: double-stranded DNA, one strand shown
Sample: in vitro
Tested at: not given
Setting: k-mer, scored over probes, only values ≥0.25
Reading: higher = stronger binding
Measurement: E-score
Residues (chain): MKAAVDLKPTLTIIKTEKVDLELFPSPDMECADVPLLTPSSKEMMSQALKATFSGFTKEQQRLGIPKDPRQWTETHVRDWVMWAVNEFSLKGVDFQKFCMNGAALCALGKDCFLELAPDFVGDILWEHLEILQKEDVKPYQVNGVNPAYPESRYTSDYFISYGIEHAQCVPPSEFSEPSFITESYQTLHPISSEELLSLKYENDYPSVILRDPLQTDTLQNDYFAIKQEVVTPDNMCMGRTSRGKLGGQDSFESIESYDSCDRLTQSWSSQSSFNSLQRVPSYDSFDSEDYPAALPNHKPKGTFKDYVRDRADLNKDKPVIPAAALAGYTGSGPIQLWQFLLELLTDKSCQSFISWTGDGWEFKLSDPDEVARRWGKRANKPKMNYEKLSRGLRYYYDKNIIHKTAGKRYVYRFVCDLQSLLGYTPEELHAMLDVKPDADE
Strand = ACCGGGTA; result = 0.414
Strand = AACCGCCG; result = 0.292
Strand = AATACACC; result = 0.279
Strand = AACACATA; result = 0.298
Strand = CCCGCCCG; result = 0.384
Strand = ATGCATCA; result = 0.271
Strand = ACTCCGGA; result = 0.321
Strand = GACAGGAA; result = 0.307

Other studies, line by line
Substance = PhoQ, residues 284 288 289 292 302 303 SCCLKL; target = PhoP, residues 12 14 15 18 19 IQFRS (Escherichia coli, UniProt P23836); assay = Sort-seq, refers to: YFP reporter; test system = E. coli; setting = PhoQ-PhoP variant library, with: 10 µM Mg2+; how to read = baseline: high Mg2+ state, higher = stronger signaling; measurement = fold induction; result = 3.68

Excerpt of the above (study 1):
Strand = AAACTTACCTCACTCGTTAAGTGCTAG; result = 0.719 z-score
Strand = TCATATTTACTCTCTACAACTGTGCTA; result = 1.41 z-score
Strand = ATTTTTTAGCTTCTCAATTAGTGCTAG; result = 0.944 z-score
